Measured values gathered from unrelated publications.
Numbered parts are unrelated; each lists some results of a single study.

Sample 1
Target: Interferon regulatory factor 7, full length, phosphomimetic (IRF7, Homo sapiens, UniProt Q92985, residues 1-503, S101K/S471D/S472D/S475D/S476D/S477D/S483D/S484D/S487D)
Technique: protein-binding microarray
Form: double-stranded DNA, one strand shown
Medium: in vitro
Tested at: 250 nM
Notes: 60-bp whole probe
Added: salmon DNA 0.4 mg/ml
Reference: random background probes
Reading: higher = stronger binding
Shared flanks, not repeated: GCCTAGCAC … GTCTTGATTCGCTTGACGCTGCTG
Residues (chain): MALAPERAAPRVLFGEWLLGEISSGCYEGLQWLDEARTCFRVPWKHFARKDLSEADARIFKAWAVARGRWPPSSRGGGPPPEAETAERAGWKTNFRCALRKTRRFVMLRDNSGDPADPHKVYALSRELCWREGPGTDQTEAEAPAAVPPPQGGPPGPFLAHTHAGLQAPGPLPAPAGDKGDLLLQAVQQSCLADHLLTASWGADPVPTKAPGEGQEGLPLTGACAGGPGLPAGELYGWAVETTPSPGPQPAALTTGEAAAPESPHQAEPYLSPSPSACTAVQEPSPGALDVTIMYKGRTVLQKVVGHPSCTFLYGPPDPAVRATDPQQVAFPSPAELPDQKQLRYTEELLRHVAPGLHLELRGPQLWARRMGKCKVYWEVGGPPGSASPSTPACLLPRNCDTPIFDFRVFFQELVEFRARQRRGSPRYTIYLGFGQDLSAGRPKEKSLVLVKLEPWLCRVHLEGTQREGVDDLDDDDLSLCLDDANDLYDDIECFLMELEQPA
Sequence	log fluorescence
GACGATCTCAGACTGGAGAAGTGCTAG	-0.336 z-score
ACTGATTTCCACTTTCTTAAGTGCTAG	1.64 z-score
GACGCTTTCAGACTGGAGACGTGCTAG	0.174 z-score
GACGGTTTCCTTTTCCTGACGTGCTAG	6.46 z-score
ATCATTCTCACTGCAGCCTTGTGCTAG	0.509 z-score
TTAGGTTCACTTTTCCTTTAGTGCTAG	3.88 z-score
GGGAAAATGGCTTTGCAGATGTGCTAG	-0.603 z-score
GACGGTTTCGGTTCCGGGGCGTGCTAG	11.9 z-score
CATGAATCAGGCATAGCATGGTGCTAG	-0.136 z-score
GACGGACTGGGGACTGGTGACGTGCTA	-0.784 z-score
TTTTTTTCATATATATATGAGTGCTAG	1.4 z-score
GACGATATCGGGAATCGAGACGTGCTA	0.32 z-score
ATAGGACTGCTTATCCTTTAGTGCTAG	0.189 z-score
TCATTTTTTTACTTCGGACTGTGCTAG	0.734 z-score
TTAGGTATAGGGTATCGGTTAGTGCTA	0.293 z-score
TTTCGTTACTTCCTCAAACAGTGCTAG	4.82 z-score
TCACACACCATTCTCGGACTGTGCTAG	0.268 z-score
GCCGGTATCCTTTTCCTGACGTGCTAG	1.21 z-score
GACGGTCACGGTCTCGGGACGTGCTAG	-0.187 z-score

Sample 2
Target: PABPC1L2, full length, GST fusion (mouse, UniProt A0ABA7IW68)
Technique: RNAcompete
Form: RNA
Medium: in vitro
Tested at: 20 nM
Notes: 7-mer, probes averaged, single round
Reference: mean of 7-mers
Reading: higher = stronger binding
Construct (chain): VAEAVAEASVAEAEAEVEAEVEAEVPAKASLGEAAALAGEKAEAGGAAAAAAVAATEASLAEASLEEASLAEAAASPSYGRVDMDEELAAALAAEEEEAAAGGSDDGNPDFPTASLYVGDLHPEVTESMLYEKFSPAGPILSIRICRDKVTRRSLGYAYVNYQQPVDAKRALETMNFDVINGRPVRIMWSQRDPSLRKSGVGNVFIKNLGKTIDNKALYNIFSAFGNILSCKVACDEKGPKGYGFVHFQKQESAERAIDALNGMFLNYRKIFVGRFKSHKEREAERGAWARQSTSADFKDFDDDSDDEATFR
Sequence	7-mer Z-score
CCACAUC	-0.233
CCCGCUC	-0.441
AACCCCA	-0.0373
AAACCCC	-0.0881
CGAUGUU	-0.322
CGCUGGC	-0.367
CUCGACA	-0.231
CGCAGGU	-0.126
UAUAACU	-0.144
UGACAGG	0.115
AAACUAA	1.56
GCAAAGU	0.0189
UGCGCUC	-0.229
GCAAUUA	-0.0518
UGGGCAU	0.263
AAGCGUG	0.117
GGCGCAU	0.00979
GAUUGUU	-0.411
CGUGGUU	-0.18
GUGACCA	-0.021
AGGUCGC	-0.304
CUUGCGC	-0.291

Sample 3
Target: RNA binding protein fox-1 homolog 2, RRM domain, GST-SBP tag (RBFOX2, Homo sapiens, UniProt O43251-10, residues 100-194)
Technique: RNA Bind-n-Seq
Form: RNA
Medium: in vitro
Tested at: 365 nM
Notes: natural RNA segment, single round, ends assumed
Reference: no-protein control
Reading: higher = stronger binding
Construct (chain): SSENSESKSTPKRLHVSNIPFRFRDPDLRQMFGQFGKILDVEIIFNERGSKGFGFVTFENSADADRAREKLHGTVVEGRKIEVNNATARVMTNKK
Sequence	RBNS enrichment (R)
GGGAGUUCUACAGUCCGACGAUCAACAUCACCAGCCUGGGCUAAGCUCCUGGGCUGUGCCGUCCACUGGGGACUGGGGAUGGGACACCUGAGGACAUUCUGAGACUUCUUUCUUCCUUCCUUUUUUUUUUUUUUGGAAUUCUCGGGUGCCAA	0.722
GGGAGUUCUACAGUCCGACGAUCAGGCACACCCACGCUGGGACAGGGACUUCUAACCGACUGGCCUGCUGCUAAUGCAGGACAGUCUACUUUUCAGUUAAUUCAGAGCCCUUAGCUUGUGUUAUCAAAUGUUCUGGAAUUCUCGGGUGCCAA	0.5
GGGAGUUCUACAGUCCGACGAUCUUCUUUAUAGUUAAGUCUCUGUUUUCCAUGUUCUGUCAUUUAUAUAGGUCAAGGACAAGUGCCUUCUAAGGCAUGGAUAAGGGCUUUCUUCUUAUGAAAGUCUAGACUGUUGGAAUUCUCGGGUGCCAA	0.307
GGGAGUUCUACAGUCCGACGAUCAACUCACCAGCAGGUGUGCAGUAGGCAAGCUUGAAGGUGGCCCAUGCUUCUCUGUUGUCACACAACACCUUUCCCUGUUUCUCUUCAGUUGUCCUCUGAUAUUUUCACAGUGGAAUUCUCGGGUGCCAA	0.249
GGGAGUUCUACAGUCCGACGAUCCCUCCCACCAGCUGGAUGCCCAUUUCUGAGCUCAGUCACUGAAGUGAGAGUGUGCUCCCCCAAGGGAGGCUUCUCUCCAUCAGGAUGGUACUUUGGGGGAACAAAAUAGUUGGAAUUCUCGGGUGCCAA	0.245
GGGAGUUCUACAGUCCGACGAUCUUCACUUUUGUAGACCUUCCCUGAAGUCCAUGGAACAGACCUAAGGGAACAACUGAGCAUCAAAACCGGCUUUGCUUUACUUCCUGGCAGGCUGCAGCCAAGGGGACUGAUGGAAUUCUCGGGUGCCAA	0.536
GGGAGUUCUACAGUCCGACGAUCCGAAAGGUGACAUCUAAUUUCACAUUAAAAUGUUAGUGGAUAUAAUUUCAUGGUUGUACUUCUUAGAUUUAAUUUCUAGGCCAACACGUUAUCUUAAGGUGCAGUUUUAAUGGAAUUCUCGGGUGCCAA	0.324
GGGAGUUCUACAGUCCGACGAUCGUCAGUUUUGAGUAUCAUUGGCCCUUUCCAGCACAUGGGUGAGAAAACAGGCCACGACUUGUCACUCAGCACUAACCCCCAGUUCUUGAACAGCCUCCUCCAGCCCUGCUUGGAAUUCUCGGGUGCCAA	0.641

Sample 4
Target: Centromere-binding protein 1, full length, His-tagged (CBF1, Saccharomyces cerevisiae, UniProt P17106, residues 1-351)
Sequence of UniProt P17106 (whole entry, looked up): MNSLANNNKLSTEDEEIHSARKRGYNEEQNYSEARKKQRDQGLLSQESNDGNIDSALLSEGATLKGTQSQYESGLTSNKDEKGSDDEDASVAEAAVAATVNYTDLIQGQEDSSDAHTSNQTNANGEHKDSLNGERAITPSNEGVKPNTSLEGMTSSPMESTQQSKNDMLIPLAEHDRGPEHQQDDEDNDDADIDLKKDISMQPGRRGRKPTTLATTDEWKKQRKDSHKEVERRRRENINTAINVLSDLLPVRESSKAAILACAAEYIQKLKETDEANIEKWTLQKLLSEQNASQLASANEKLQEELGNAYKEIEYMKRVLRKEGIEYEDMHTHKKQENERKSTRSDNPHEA
Technique: competition protein-binding microarray
Form: double-stranded DNA, one strand shown
Medium: in vitro
Tested at: 2 µM
Notes: whole 60-bp probe, lowest competitor level
Added: Pho4 competitor, 0.05 µM
Reading: higher = stronger binding
Sequence	fluorescence intensity
TCAAAAAGGGACAATCACCTGGATGCATAAGGAGGAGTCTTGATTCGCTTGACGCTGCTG	76.1 a.u.
TTGAGATACCTCAGTGATGTGGCACAGCGTAAGGAGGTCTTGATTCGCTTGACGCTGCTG	75.8 a.u.
CGTCCTAGTGATTTTCACGTGTCGTCCATGAGGAAGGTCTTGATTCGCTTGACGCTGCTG	836 a.u.
AAATTACTAAGTTGGATAGTGGGTGACGCCGTATGAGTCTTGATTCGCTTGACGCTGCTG	77.7 a.u.
CTTTCCCGATCTTGTCCGGTGGGTGTAGCACATTTGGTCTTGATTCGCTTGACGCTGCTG	76.3 a.u.
CTTTCCCGATCTTTTCACGTGCTATTAGCACATTTGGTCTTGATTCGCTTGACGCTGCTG	1110 a.u.
CACTGTTCGCTTCGTCATGATCAATGGTGTTACTGAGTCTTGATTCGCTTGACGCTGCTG	79.9 a.u.
AAAAGTTTAAACTGGCACGGGCTATTGCGTCTCATAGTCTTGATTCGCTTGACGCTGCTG	92.2 a.u.
TCGAGGACGTATTGGCAGGTGAAGTTTTCAGCAACTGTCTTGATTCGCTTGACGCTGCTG	76.8 a.u.
GTAACAGTATACGATCATGTGATATTACGTACATAAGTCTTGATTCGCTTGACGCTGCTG	1880 a.u.
CATGCTTTTGGGTTACCACATTCAACAATAACTCGAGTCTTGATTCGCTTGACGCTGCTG	100 a.u.
GCGAAATTATAGGGTCAGGTGATATTTGCGATGTGAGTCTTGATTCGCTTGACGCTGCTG	1890 a.u.
TGCCCAAAGCTCTGGCACGTATGAAACTGCTTTTCGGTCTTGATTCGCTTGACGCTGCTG	62.3 a.u.
AGTTGTTGCTCGTCGCTCGTGTAGGACTGTAGTTGCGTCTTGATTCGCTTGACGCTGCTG	57 a.u.
CTATTGTCTTAGAATCACGTGGACCCTAGACTATAGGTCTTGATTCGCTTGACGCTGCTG	3740 a.u.
CCCAGACCCACCCAGATCGTGATGGTTGTTACCATCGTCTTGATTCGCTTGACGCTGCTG	69 a.u.
ATTATGGTAGAGACCCTCGTGAATACTGCATCTTGTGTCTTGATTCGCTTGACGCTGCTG	90.1 a.u.
TACTGACAAGATCGGCACGTTCGCCTAACCTGCGGTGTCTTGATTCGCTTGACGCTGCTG	64.4 a.u.
ATGAATTACCTAACTCAGGTGACGGGGTGTTCAAATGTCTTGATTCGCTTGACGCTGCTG	130 a.u.

For quick reference, copied from above (sample 1):
Sequence	log fluorescence
GACGGTTTCGGTTCCGGGGCGTGCTAG	11.9 z-score
CATGAATCAGGCATAGCATGGTGCTAG	-0.136 z-score
GACGGACTGGGGACTGGTGACGTGCTA	-0.784 z-score
TTTTTTTCATATATATATGAGTGCTAG	1.4 z-score
GACGATATCGGGAATCGAGACGTGCTA	0.32 z-score
ATAGGACTGCTTATCCTTTAGTGCTAG	0.189 z-score
TCATTTTTTTACTTCGGACTGTGCTAG	0.734 z-score
TTAGGTATAGGGTATCGGTTAGTGCTA	0.293 z-score
TTTCGTTACTTCCTCAAACAGTGCTAG	4.82 z-score
TCACACACCATTCTCGGACTGTGCTAG	0.268 z-score
GCCGGTATCCTTTTCCTGACGTGCTAG	1.21 z-score
